Results gathered from unrelated publications.
Numbers after ± are the reported error.
Cell line: HUVEC

For `COc1ccc(C[S+]([O-])c2ccc3cc(Br)ccc3c2)cc1N` (stereo not shown), the IC50 was 2.5 µM (cell growth or viability, MTS; 48 h).
With `COc1ccc2cc3[n+](cc2c1OCCc1cn(Cc2ccc(C)cc2)nn1)CCc1cc2c(cc1-3)OCO2` the IC50 was 146 µM (cell growth or viability, MTT).
`VEGF` has a tube length of 1.8 fold (Matrigel; 1 ng/mL, 5 min then 8 h continuous; relative to: control media).
`COc1cc(OC)c(/C=C/S(=O)(=O)Cc2ccc(OC)c(NCC(=O)O)c2)c(OC)c1` has an IC50 of 0.122 µM (cell growth or viability, MTS; 48 h).
`LRRFSTMPFMFTNINNVTNF` gave an inhibition of 98.69 ± 0.08% (cell adhesion, real-time cell analysis; peptide; 100 µM, 3 h; relative to: vehicle).
`COc1ccc(C[S+]([O-])c2ccc3ccccc3c2)cc1N` (stereo not shown) gave an IC50 of 5.6 µM (cell growth or viability, MTS; 48 h).
With `LRRFSTMPFMFVNINNVVNF` the inhibition was 98.78 ± 0.14% (cell migration, real-time cell analysis; peptide; 50 µM, with: full medium chemoattractant; relative to: vehicle).
`COc1ccc2cc3[n+](cc2c1OCCc1cn(Cc2ccc(F)cc2F)nn1)CCc1cc2c(cc1-3)OCO2` gave an IC50 of 12.1 µM (cell growth or viability, MTT).
For `LRRFSTMPFMFGNINNVGNF`, the inhibition was 97.8 ± 0.15% (cell adhesion, real-time cell analysis; peptide; 100 µM, 3 h; relative to: vehicle).
With `COc1ccc2cc3[n+](cc2c1OCCc1cn(Cc2ccc(Br)cc2)nn1)CCc1cc2c(cc1-3)OCO2` the IC50 was 11.2 µM (cell growth or viability, MTT).

Repeated from above:
For `LRRFSTMPFMFGNINNVGNF`, the inhibition was 97.8 ± 0.15% (cell adhesion, real-time cell analysis; peptide; 100 µM, 3 h; relative to: vehicle).
